{"data": "Published values of several laboratories", "Sialidase-2": "Sialidase-2 (Homo sapiens, UniProt Q9Y3R4)", "note": "Protocols differ between the studies behind these lines. Numbers after ± are the reported error.", "chain of UniProt Q9Y3R4 (whole entry, looked up)": "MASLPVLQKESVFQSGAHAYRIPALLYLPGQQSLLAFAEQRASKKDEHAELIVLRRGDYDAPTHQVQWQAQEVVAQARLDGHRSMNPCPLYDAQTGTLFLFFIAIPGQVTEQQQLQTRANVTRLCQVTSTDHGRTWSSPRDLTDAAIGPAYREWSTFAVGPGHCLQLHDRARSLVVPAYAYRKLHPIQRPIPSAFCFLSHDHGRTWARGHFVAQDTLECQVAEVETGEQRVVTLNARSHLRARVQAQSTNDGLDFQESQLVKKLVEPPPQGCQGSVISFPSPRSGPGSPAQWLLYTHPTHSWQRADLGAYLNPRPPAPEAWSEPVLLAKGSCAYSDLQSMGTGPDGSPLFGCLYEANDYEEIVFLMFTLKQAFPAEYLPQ", "chain of UniProt Q16774 (whole entry, unmodified, looked up)": "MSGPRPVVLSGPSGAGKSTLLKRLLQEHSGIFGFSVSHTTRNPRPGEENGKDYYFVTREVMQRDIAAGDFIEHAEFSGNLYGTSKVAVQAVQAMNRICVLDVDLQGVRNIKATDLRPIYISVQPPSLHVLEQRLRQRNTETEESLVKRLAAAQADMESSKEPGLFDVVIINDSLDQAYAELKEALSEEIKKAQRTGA", "chain of UniProt C9K1X5 (whole entry, looked up)": "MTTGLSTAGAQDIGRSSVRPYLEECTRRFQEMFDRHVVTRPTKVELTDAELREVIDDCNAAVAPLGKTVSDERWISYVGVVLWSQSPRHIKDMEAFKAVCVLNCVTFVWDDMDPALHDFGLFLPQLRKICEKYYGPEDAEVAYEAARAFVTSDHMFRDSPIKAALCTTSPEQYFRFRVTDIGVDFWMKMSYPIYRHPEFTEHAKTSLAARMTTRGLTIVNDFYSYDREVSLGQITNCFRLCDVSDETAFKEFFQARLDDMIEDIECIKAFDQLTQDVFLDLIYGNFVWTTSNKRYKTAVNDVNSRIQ"}
{"SMILES": "C[C@@H](O)[C@H]1C(=O)N2C(C(=O)O)=C(S[C@@H]3CN[C@H](C(=O)Nc4cccc(C(=O)O)c4)C3)[C@H](C)[C@H]12", "tested on": "beta-lactamase RAD-1 (Riemerella anatipestifer)", "assay": "substrate, continuous spectrophotometric hydrolysis", "setting": "30 °C", "quantity": "Km", "value": "20 ± 1.9 µM"}
{"SMILES": "O=C(CO)NC1C(O)CC(OC2C(O)C(CO)OC(Oc3ccc([N+](=O)[O-])cc3)C2O)(C(=O)O)OC1C(O)C(O)CO (centres unmarked)", "tested on": "Sialidase-2", "assay": "substrate", "setting": "10 min, pH 5.0, 37 °C", "quantity": "Km", "value": "1000 ± 100 µM"}
{"SMILES": "C[C@@H](O)[C@H]1C(=O)N2C(C(=O)O)=C(S[C@@H]3CN[C@H](C(=O)N(C)C)C3)[C@H](C)[C@H]12", "tested on": "beta-lactamase RAD-1 (Riemerella anatipestifer)", "assay": "substrate, continuous spectrophotometric hydrolysis", "setting": "30 °C", "quantity": "Km", "value": "20 ± 2.2 µM"}
{"SMILES": "CCCCCCCCCCCCCCCC(=O)SCCNC(=O)CCNC(=O)[C@H](O)C(C)(C)COP(=O)(O)OP(=O)(O)OC[C@H]1O[C@@H](n2cnc3c(N)ncnc32)[C@H](O)[C@@H]1OP(=O)(O)O", "tested on": "GPAT (Gat1 and Gat2), yeast", "assay": "substrate", "system": "Saccharomyces cerevisiae, BY4741 wild type, total membranes", "setting": "together with: [3H]glycerol-3-phosphate", "quantity": "Km", "value": "72.3 ± 21.5 µM"}
{"SMILES": "C[C@H]1[C@H](NC(=O)/C(=N\\OC(C)(C)C(=O)O)c2csc(N)n2)C(=O)N1S(=O)(=O)O", "tested on": "beta-lactamase RAD-1 (Riemerella anatipestifer)", "assay": "substrate, continuous spectrophotometric hydrolysis", "setting": "30 °C", "quantity": "Km", "value": "2560 ± 234 µM"}
{"SMILES": "CC(C)=CCC/C(C)=C/CC/C(C)=C/CC/C(C)=C/COP(=O)(O)OP(=O)(O)O", "tested on": "CotB2 (Streptomyces melanosporofaciens, UniProt C9K1X5)", "assay": "substrate, pyrophosphate release", "setting": "together with: MgCl2 2.5 mM", "quantity": "Km", "value": "12.3 µM"}
{"SMILES": "Nc1c(N=Nc2ccc(S(=O)(=O)CCOS(=O)(=O)O)cc2)c(S(=O)(=O)O)cc2cc(S(=O)(=O)O)c(N=Nc3ccc(S(=O)(=O)CCOS(=O)(=O)O)cc3)c(O)c12", "tested on": "alternative ancestral dye-decolorizing peroxidase", "assay": "peroxidase activity, substrate, steady-state kinetics", "setting": "25 °C, pH 3 ABTS, 4 others", "quantity": "Km", "value": "9 µM"}
{"SMILES": "O=C(Cc1cccs1)N[C@@H]1C(=O)N2C(C(=O)O)=C(/C=C/c3ccc([N+](=O)[O-])cc3[N+](=O)[O-])CS[C@H]12", "tested on": "beta-lactamase RAD-1 (Riemerella anatipestifer)", "assay": "substrate, continuous spectrophotometric hydrolysis", "setting": "30 °C", "quantity": "Km", "value": "7.6 ± 1.5 µM"}
{"SMILES": "Nc1c(S(=O)(=O)O)cc(Nc2cccc(S(=O)(=O)CCOS(=O)(=O)O)c2)c2c1C(=O)c1ccccc1C2=O", "tested on": "alternative ancestral dye-decolorizing peroxidase", "assay": "peroxidase activity, substrate, steady-state kinetics", "setting": "25 °C, pH 3 ABTS, 4 others", "quantity": "Km", "value": "19 µM"}
{"SMILES": "CC(=O)N[C@H]1[C@H]([C@H](O)[C@H](O)CO)OC(O[C@H]2[C@@H](O)[C@@H](CO)O[C@@H](Oc3ccc([N+](=O)[O-])cc3)[C@@H]2O)(C(=O)O)C[C@@H]1O (some centres unmarked)", "tested on": "Sialidase-2", "assay": "substrate", "setting": "10 min, pH 5.0, 37 °C", "quantity": "Km", "value": "2200 ± 400 µM"}
{"SMILES": "COCCN(C)C(=O)c1ccc([C@H]2[C@@H](F)[C@@H](F)C[C@@H](F)[C@H]2F)cc1", "assay": "liver microsome stability", "system": "cynomolgus liver microsomes", "setting": "1 µM", "quantity": "hepatic clearance", "value": "13 mL/min/kg"}
{"SMILES": "Nc1nc2c(ncn2[C@@H]2O[C@H](COP(=O)(O)O)[C@@H](O)[C@H]2O)c(=O)[nH]1", "tested on": "GUK1 (Homo sapiens, UniProt Q16774, Y53A)", "assay": "substrate, NADH-coupled", "quantity": "Km", "value": "1050 µM"}
{"SMILES": "[N-]=[N+]=NCC(=O)N[C@H]1[C@H]([C@H](O)[C@H](O)CO)O[C@@](OC[C@H]2O[C@@H](Oc3ccc([N+](=O)[O-])cc3)[C@H](O)[C@@H](O)[C@H]2O)(C(=O)O)C[C@@H]1O", "tested on": "Sialidase-2", "assay": "substrate", "setting": "10 min, pH 5.0, 37 °C", "quantity": "Km", "value": "600 ± 200 µM"}
{"SMILES": "CN1CCN(C(=O)c2ccc([C@H]3[C@@H](F)[C@@H](F)C[C@@H](F)[C@H]3F)cc2)CC1", "assay": "liver microsome stability", "system": "cynomolgus liver microsomes", "setting": "1 µM", "quantity": "hepatic clearance", "value": "4.9 mL/min/kg"}
{"note": "A few entries again:"}
{"SMILES": "[N-]=[N+]=NCC(=O)N[C@H]1[C@H]([C@H](O)[C@H](O)CO)O[C@@](OC[C@H]2O[C@@H](Oc3ccc([N+](=O)[O-])cc3)[C@H](O)[C@@H](O)[C@H]2O)(C(=O)O)C[C@@H]1O", "tested on": "Sialidase-2", "assay": "substrate", "setting": "10 min, pH 5.0, 37 °C", "quantity": "Km", "value": "600 ± 200 µM"}
{"SMILES": "CN1CCN(C(=O)c2ccc([C@H]3[C@@H](F)[C@@H](F)C[C@@H](F)[C@H]3F)cc2)CC1", "assay": "liver microsome stability", "system": "cynomolgus liver microsomes", "setting": "1 µM", "quantity": "hepatic clearance", "value": "4.9 mL/min/kg"}
